Published values gathered from unrelated publications.
Each numbered part is a random draw from the data of one study; scales do not carry over between parts.

Block 1
Target: Sal-like protein 4, full length isoform A (SALL4, Homo sapiens, UniProt Q9UJQ4, residues 1-1053)
Chain of UniProt Q9UJQ4 (whole entry, looked up): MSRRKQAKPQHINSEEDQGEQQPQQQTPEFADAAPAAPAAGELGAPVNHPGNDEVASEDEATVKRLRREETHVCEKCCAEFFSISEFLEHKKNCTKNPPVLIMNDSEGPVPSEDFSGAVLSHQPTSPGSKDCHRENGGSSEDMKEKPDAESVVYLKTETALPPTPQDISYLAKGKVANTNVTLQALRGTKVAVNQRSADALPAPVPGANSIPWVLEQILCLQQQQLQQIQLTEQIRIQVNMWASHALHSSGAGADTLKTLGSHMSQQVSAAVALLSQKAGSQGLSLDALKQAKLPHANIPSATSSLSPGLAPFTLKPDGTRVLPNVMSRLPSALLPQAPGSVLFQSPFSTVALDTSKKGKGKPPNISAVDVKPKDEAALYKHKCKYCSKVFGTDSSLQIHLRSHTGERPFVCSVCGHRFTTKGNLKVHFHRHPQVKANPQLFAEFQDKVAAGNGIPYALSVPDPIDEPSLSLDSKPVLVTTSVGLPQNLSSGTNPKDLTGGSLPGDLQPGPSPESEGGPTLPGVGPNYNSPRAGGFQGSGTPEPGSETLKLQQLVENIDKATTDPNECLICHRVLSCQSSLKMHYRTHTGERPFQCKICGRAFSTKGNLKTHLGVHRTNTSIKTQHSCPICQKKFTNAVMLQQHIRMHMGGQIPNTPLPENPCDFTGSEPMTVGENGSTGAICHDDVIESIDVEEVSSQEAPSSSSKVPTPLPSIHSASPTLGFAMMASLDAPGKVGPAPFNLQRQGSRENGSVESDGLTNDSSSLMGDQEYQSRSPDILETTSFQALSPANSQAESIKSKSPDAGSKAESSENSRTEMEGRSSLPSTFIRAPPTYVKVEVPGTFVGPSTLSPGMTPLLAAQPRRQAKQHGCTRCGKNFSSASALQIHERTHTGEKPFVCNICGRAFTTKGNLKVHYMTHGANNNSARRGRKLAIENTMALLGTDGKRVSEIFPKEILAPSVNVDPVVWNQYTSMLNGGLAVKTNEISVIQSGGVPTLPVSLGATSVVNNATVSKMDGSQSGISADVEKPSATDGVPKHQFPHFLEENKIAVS
Technique: universal PBM
Molecule type: double-stranded DNA, one strand shown
Matrix: in vitro
Concentration: 600 nM
Setting: 8-mer, flanks averaged, mean of replicates
Direction: higher = stronger binding
Measurement: E-score
TACCACTA: 0.0729
CCTTCTCG: -0.219
AATCAGGG: -0.0881
AACTCCTG: -0.0877
CTGAGCAG: -0.116
AATCTTTC: 0.146
TGGGGCAA: -0.12
GATATTAA: 0.385
ACACCTGG: -0.233
CGCTTGCA: -0.0256
CAGAAGCG: -0.0175
AGCGAGAG: -0.0282
CAATGGTG: -0.174
GAGAGCTC: -0.195
ACCCAAGG: -0.0391
AACCAGAG: -0.075
CCGACTGC: -0.307

Block 2
Target: Interferon regulatory factor 5, full length, phosphomimetic (IRF5, Homo sapiens, UniProt Q13568-2, residues 1-514, K96S/S451D/S453D/S456D/S462D)
Technique: protein-binding microarray
Molecule type: double-stranded DNA, one strand shown
Matrix: in vitro
Concentration: 250 nM
Setting: 60-bp whole probe
With: salmon DNA 0.4 mg/ml
Reference: random background probes
Direction: higher = stronger binding
Measurement: log fluorescence
Shared flanks, not repeated: GCCTAGCAC … GTCTTGATTCGCTTGACGCTGCTG
GACGGTTTCGAATATCGGGACGTGCTA: 4.65 z-score
TAACTTTCCAATTGTCCTTTCGTGCTA: 1.98 z-score
CTCATTCTCCACTTGTGTTTGTGCTAG: 0.546 z-score
TGAGCACCCAGAGCCGCCTGGTGCTAG: -0.387 z-score
GACGATATCGAGACTGGAGACGTGCTA: 1.2 z-score
GGTTGTTTCTAATATTCTGCTGTGCTA: 1.21 z-score
CTAAATATCTTTGTTGAAAAGTGCTAG: 0.726 z-score
TTAGGTTCCGGGACTGGGTTAGTGCTA: -0.0539 z-score
TTACGTTTCGGGACTGGGTTAGTGCTA: 6.25 z-score
GTCGGACTGGGGTTTCGGGACGTGCTA: 1.25 z-score
GACGAACTGGGACTGGAGACGTGCTAG: -0.426 z-score
TTATATATCAGTCTCGATTAGTGCTAG: 2.18 z-score
AGATTTTTATCAAATGTGGGAGTGCTA: 0.309 z-score

Block 3
Target: Histone acetyltransferase KAT6A, both winged helices, GST fusion (KAT6A, Homo sapiens, UniProt Q92794, residues 1-181)
Technique: protein binding microarray
Molecule type: double-stranded DNA, one strand shown
Matrix: in vitro
Concentration: not given
Setting: 8-mer, flanks averaged, mean of 2 arrays, mostly near background
Reference: not given
Direction: higher = stronger binding
Measurement: E-score
Construct (chain): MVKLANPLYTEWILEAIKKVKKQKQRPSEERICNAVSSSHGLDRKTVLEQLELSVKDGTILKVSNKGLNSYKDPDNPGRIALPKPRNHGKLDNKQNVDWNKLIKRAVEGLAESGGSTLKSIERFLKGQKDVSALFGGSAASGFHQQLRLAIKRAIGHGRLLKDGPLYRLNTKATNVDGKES
ACGCCAAA: 0.023
GATTGAGA: -0.127
ATTACCAC: -0.147
CTCACTCA: -0.185
CGATCATA: 0.0802
ACAGCTGG: -0.132
CTTTGTGA: -0.0635
AATACGTG: -0.0441
CAATCCGC: 0.289
GTTTGCTA: -0.0608
AAGCGCTA: 0.291
AGCGTTGG: -0.0575
ATCTTTCA: -0.0499
CAGTTGGA: -0.00375
AGCATACT: -0.044

Block 4
Target: Centromere-binding protein 1, full length, His-tagged (CBF1, Saccharomyces cerevisiae, UniProt P17106, residues 1-351)
Chain of UniProt P17106 (whole entry, looked up): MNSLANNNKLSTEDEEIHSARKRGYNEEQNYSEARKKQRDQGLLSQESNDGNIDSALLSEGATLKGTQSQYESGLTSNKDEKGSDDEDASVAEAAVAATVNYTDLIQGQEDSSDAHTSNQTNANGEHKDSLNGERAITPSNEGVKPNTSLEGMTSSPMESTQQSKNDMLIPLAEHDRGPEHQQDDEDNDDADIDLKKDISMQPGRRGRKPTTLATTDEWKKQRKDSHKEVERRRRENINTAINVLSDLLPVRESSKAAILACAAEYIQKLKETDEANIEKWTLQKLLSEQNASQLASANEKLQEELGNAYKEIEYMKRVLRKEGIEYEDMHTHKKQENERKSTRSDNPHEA
Technique: competition protein-binding microarray
Molecule type: double-stranded DNA, one strand shown
Matrix: in vitro
Concentration: 2 µM
Setting: whole 60-bp probe, lowest competitor level
With: Pho4 competitor, 0.05 µM
Direction: higher = stronger binding
Measurement: fluorescence intensity
Shared flanks, not repeated: … GTCTTGATTCGCTTGACGCTGCTG
TCTTATATTGCAAAGCACGTTTCATCAAGACCTTTA: 160 a.u.
TGCGCAACAACTTGGGCGGTGGGTGTATGTCTAGAA: 55.9 a.u.
GTCTTGTCTCATTGATTGGTGGGTGTCCCCACTTCA: 84.4 a.u.
AAATGGCCAATATTCTACGTGCTTTTTATTAGAAAC: 96.8 a.u.
GTCTTGTCTCATTGGCTAGTGGGTGTCCCCACTTCA: 61.5 a.u.
GATGTAGATTACACTCTCATGACAATAAGCCACCCG: 62.7 a.u.
CCGTTGACTTAGCTTCCTGTGATGCTGGTGTTGTTG: 73.5 a.u.
AAATTACTAAGTTGATACGTGGGTGACGCCGTATGA: 80.1 a.u.
AGTCGAGCCGCCCGTCACGTGCGGAGCCGCCCTGCT: 2440 a.u.
TAATTGCGACGGCGTCACCTGGAGAAACGAAAGATG: 78.8 a.u.
CATTGGTGTCATTGTCATGATCCACTCTGACAACAA: 78.9 a.u.
ATTACCAAACGCTGTCATGTGTAGCCACTCTAGAAG: 140 a.u.
AGCGTTCAACTAGTCTACTAAAAAGTAAAAGAGTTA: 80.4 a.u.

Block 5
Target: Hepatocyte nuclear factor 3-alpha (Foxa1, Mus musculus, UniProt P35582, residues 1-468, full length assumed)
Technique: EMSA with sequencing
Molecule type: double-stranded DNA, one strand shown
Matrix: in vitro
Concentration: 10 and 20 nM
Setting: whole designed probe, mean of two concentrations, ends assumed
Reference: negative control set to 0
Direction: higher = stronger binding
Measurement: normalised bound fraction
Shared flanks, not repeated: GTGAGCGGTGCCCATTGATGGGGAAC … TTTCACTGGGATCGTGGGGAC
Construct (chain): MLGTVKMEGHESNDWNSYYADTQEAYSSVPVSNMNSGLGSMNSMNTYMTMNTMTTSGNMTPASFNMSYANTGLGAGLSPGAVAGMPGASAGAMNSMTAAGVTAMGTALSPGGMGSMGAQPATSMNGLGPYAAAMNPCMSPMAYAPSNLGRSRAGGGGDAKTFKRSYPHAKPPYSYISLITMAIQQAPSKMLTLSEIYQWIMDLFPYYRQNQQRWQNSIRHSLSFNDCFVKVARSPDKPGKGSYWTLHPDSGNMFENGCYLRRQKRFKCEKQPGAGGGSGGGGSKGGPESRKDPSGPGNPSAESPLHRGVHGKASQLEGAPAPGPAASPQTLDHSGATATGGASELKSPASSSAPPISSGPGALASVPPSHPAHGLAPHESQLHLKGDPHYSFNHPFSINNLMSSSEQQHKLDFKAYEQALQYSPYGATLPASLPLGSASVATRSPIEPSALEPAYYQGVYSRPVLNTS
TAATTAAGACATATCTAAAAGTATCAACAGTATCGGGAAGAAAACATGAAGTTCACATGATACCCCAATGCTTCTAGAAAAGTCACAAATGAGTAATCTAGGAATATTATAACTGATATGTGTGATTCAGATAAAGACTAGGGTGGTACATGAAAAATGGCTTAAGTCAAGGGTGTAATTGAGACTAGATCAA: -0.0161 ratio
GCCTGGAAGAAAGGGGCTGTTTTCCTTTTCACTATTATTATTTTAAACTTTGATGGGCTGCTGACGTCTGGAAATATGCTTGACGCCTGTAAAGCAAATAAGCCACATCACAAGCAGAAAGCCTGTGGGATTTTCTGGTGCCCTATTTCTAGAACCTTCCCTGTTCTGACCATTTGAAGGTGCTTATTTAGTC: 0.284 ratio
ATCTTCCCCCTCTTCCTTGCCCCACCAGCTCACCTTCCCGGGTTATTTGCAGATAGGAAAATAAATAAAGCCGGCATTCGTTAACCCTCTTCTGGCGCAAACTGCTGTTTGCTCTGGATCTAACATGGTCCTTTGGCGACGCCAGGCTCCGGGAGAGCAAAGCACCGTGTCAGGGCCATGATCCGGGCTCGCC: 0.343 ratio
GCCACAGTTCAAGTTCAAAGAGAAACACTCTAGCAACTTCTGAAAGCAGGAACTGTATGCAACTGAATGACCTCATCCGGCACAGAAGCCAGAGCAATCTATGAAAAACAAACCGTACCAACTCTGGTACCAGTTACTGACCTTCCAGACCAAGAGAACGTGCTGGCAGCACTGGTGAAATGTACTTGTCTGT: -0.0143 ratio
AGATTGCTTTGTGATTGTTTTGCCAGATTTTGCTTTCACCCACAAAAACACTAAGCTCTGCCAACCAGTTCGGCGTTTTTGTAAGTTAGCAAAATAAACACTAAAGTGAAAACGCGGCTTTTGGGCGGGGCTCCCACAGGCTGGCTCCTTTTAAGTGGAATGTTGCTGTGCTGCCCTCTTGTGGCCATTTGGG: 0.255 ratio
CACTGTAAAAACTTAGTCAATTTTTTTTTCTAAGAAAGAAAGTAAAGATAATAAAGACCTGTTACCCAATTCTGAGCAGAAGCTGAGTCACTGTGTAATCTCACTTCAACTACCGGCCTGCTTTCTCAAGGGTGAATCAATTGCTTTGAACAATGAATGTACTGAGTTCTTTCCAATTTTATCCTGCAGAATA: -0.0348 ratio
ATCTTCCCCCTCTTCCTTGCCCCACCAGCTCACCTACGGGGGTTATTTGCAGATAGGAAAATAAATAAAGCCGGCATTCGTTAACCCTCTTCTGGCGCAAACTGCTGTTTGCTCTGGATCTAACATGGTCCTTTGGCGAGGCGTGGCTCCGGGAGAGCAAAGCACCGTGTCAGGGCCATGATCCGGGCTCGCC: 0.343 ratio

Excerpt of the above (block 1):
GAGAGCTC: -0.195
AACCAGAG: -0.075
CGCTTGCA: -0.0256
CTGAGCAG: -0.116
ACACCTGG: -0.233
CCTTCTCG: -0.219
CAATGGTG: -0.174
